Experimental data pooled from the literature.
Every numbered part comes from another study and shows a few of its results, in no order.
UniProt Q8WXR4, sequence (whole entry, looked up): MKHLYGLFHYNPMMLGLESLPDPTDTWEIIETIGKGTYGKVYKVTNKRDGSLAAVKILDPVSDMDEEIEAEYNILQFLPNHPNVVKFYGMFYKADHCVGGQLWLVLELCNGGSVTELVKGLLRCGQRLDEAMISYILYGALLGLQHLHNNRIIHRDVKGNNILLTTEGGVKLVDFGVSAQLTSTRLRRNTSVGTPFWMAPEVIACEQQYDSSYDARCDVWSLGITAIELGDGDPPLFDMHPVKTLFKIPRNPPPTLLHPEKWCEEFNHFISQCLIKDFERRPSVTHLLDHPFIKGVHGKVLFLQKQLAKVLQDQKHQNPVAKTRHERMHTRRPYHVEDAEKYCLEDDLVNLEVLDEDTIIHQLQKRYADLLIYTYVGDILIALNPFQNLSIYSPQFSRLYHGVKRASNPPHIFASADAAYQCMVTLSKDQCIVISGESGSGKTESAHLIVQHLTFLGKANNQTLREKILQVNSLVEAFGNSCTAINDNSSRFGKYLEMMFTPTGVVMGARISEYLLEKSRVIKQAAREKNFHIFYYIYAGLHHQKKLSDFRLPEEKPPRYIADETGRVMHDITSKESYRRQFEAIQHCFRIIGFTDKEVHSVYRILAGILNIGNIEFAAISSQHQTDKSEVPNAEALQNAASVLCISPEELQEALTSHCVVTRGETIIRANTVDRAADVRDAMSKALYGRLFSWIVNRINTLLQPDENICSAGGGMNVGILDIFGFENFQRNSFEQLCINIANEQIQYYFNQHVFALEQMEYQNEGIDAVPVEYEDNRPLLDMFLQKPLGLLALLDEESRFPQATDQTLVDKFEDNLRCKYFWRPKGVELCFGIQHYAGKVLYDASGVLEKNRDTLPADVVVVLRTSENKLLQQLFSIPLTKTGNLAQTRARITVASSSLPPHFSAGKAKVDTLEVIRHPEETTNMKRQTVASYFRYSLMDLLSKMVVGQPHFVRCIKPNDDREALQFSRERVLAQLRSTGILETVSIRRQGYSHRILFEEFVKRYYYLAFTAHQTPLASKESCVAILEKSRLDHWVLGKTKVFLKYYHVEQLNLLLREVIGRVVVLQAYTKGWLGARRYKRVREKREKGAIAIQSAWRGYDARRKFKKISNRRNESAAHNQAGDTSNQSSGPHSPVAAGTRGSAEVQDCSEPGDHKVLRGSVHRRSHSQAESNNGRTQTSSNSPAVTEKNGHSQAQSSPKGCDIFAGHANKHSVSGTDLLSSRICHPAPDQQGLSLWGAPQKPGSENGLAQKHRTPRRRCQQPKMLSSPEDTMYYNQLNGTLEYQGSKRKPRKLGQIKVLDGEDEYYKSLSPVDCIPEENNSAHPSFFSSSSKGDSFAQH
UniProt Q9Y616, sequence (whole entry, looked up): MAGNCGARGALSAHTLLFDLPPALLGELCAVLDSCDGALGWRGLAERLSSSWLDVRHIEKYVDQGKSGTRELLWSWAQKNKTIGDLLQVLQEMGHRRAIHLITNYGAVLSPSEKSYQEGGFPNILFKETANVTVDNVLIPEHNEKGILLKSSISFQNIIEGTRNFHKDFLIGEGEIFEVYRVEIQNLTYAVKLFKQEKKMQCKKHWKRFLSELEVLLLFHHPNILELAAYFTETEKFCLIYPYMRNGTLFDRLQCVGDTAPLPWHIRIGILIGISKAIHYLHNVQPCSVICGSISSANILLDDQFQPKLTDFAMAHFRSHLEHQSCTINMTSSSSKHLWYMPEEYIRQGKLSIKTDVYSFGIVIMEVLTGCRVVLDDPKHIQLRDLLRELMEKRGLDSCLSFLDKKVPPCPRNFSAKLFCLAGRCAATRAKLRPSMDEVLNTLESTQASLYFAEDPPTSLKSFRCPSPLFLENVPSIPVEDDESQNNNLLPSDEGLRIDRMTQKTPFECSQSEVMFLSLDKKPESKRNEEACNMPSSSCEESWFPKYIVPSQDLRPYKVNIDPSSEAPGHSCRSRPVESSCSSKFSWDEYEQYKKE
UniProt Q59H18, sequence (whole entry, looked up): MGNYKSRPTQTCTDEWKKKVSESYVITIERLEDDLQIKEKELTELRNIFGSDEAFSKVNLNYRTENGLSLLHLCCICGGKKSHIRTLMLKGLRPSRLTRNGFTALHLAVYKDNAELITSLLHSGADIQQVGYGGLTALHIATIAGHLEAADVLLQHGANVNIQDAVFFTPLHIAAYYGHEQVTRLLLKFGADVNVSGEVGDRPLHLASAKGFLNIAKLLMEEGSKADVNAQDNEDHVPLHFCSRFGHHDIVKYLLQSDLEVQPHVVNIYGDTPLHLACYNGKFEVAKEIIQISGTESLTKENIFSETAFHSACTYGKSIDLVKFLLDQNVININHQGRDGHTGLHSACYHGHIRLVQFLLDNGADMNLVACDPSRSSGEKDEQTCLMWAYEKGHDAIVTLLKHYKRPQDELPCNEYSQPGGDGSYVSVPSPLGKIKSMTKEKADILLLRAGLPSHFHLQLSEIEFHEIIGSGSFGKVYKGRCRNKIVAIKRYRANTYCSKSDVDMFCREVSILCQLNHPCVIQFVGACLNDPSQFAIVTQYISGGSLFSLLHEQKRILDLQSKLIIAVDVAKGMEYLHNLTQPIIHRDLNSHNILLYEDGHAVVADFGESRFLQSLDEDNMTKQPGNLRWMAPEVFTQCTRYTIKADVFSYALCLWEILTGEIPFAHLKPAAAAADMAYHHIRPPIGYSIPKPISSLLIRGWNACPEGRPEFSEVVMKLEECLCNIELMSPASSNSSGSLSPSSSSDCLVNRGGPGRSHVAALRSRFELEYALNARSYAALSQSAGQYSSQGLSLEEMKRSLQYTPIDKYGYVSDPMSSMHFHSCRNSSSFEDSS
UniProt P57059, sequence (whole entry, looked up): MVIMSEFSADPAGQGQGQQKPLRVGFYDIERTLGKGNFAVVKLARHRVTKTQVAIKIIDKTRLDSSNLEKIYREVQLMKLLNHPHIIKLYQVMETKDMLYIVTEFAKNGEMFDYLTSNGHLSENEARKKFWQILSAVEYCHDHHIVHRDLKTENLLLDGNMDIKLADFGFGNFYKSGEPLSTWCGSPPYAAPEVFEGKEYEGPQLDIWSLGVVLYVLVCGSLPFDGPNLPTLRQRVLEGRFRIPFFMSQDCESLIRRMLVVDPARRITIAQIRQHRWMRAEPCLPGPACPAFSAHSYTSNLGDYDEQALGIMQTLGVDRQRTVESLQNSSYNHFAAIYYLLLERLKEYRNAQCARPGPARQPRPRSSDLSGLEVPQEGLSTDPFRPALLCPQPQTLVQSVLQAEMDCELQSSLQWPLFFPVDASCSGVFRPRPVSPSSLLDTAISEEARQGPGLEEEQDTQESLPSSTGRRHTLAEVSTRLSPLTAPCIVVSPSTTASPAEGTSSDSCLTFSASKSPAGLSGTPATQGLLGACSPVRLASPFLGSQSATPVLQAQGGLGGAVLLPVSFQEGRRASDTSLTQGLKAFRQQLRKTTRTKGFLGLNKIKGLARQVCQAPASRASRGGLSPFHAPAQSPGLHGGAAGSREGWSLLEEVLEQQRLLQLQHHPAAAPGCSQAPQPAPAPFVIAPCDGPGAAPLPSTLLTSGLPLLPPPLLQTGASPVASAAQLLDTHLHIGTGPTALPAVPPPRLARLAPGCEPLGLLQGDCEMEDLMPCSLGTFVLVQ
UniProt P19525, sequence (whole entry, looked up): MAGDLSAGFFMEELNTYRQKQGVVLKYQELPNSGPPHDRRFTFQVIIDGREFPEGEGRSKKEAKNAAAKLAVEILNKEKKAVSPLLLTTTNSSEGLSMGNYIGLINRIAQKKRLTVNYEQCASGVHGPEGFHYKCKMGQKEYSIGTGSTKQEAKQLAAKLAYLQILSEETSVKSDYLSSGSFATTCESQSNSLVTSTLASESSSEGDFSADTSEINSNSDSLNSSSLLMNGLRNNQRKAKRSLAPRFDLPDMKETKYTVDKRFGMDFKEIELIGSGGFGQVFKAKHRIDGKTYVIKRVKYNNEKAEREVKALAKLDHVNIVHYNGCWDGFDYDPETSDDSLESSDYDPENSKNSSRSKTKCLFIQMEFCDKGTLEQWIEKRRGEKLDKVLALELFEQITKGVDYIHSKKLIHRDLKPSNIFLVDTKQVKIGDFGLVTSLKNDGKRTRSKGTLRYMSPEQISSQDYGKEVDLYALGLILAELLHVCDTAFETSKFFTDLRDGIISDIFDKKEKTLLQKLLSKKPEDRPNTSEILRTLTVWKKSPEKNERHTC

Sample 1
Cell line: mouse MPNST tumor cells
Technique: high-content nuclear imaging
Item: cell number
Tested at: 10 µM
Time: 12 h
Setting: mean of 2 replicates
Baseline: plate mean
Direction: higher = more cells
SMILES | nuclei count
CN1CCC(=C2c3ccccc3CC(=O)c3sccc32)CC1 | 2.51 z-score
CC(C(O)c1ccc(O)cc1)N1CCC(Cc2ccccc2)CC1 (centres unmarked) | 0.588 z-score
CC=CC(=O)N(CC)c1ccccc1C | 0.452 z-score
N=C1NC(=O)/C(=C/c2ccc(O)cc2)S1 | 2.35 z-score
CCCCCN(CCCCC)C(=O)C(CCC(=O)O)NC(=O)c1ccc(Cl)c(Cl)c1 (centres unmarked) | 1.9 z-score

Sample 2
Target: Casein kinase I isoform delta (CSNK1D, Homo sapiens, UniProt P48730)
UniProt P48730, sequence (whole entry, looked up): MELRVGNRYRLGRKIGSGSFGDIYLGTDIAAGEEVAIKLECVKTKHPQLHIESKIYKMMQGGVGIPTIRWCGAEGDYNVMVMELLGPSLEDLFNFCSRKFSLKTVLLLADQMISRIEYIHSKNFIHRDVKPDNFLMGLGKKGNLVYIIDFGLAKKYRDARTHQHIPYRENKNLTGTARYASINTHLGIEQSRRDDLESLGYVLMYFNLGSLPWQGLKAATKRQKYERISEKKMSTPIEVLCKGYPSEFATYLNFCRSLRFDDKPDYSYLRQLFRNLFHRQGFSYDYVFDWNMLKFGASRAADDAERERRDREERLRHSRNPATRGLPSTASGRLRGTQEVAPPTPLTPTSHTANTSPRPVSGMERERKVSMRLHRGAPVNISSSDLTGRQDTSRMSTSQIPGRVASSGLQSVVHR
Observed: enzyme activity
Action: inhibitor
Tested at: 0.5 µM
Baseline: control
SMILES | remaining activity [%]
OCC(O)CCON=C1C(c2c(O)[nH]c3ccccc23)=Nc2ccccc21 (centres unmarked) | 52.9
O=C(CCCc1ccc(-c2ccccc2F)cc1)Nc1ccc(O)cc1 | 102
Cn1c2ccccc2c2c3c(c4c5ccccc5n(CCC#N)c4c21)CNC3=O | 97.5
Nc1ccc2ncnc(NCCc3ccc(Oc4ccccc4)cc3)c2c1 | 100
Oc1ccc(-c2nc(-c3ccncc3)c(-c3ccc(F)cc3)[nH]2)cc1 | 16.8
Cc1ccc(Nc2nccc(N(C)c3ccc4c(C)n(C)nc4c3)n2)cc1S(N)(=O)=O | 95.4
C#Cc1cccc(Nc2ncnc3cc(OCCOC)c(OCCOC)cc23)c1 | 86.9
N#CC(C#N)=C(N)/C(C#N)=C/c1ccc(O)cc1 | 98.7
CCOC(=O)c1c(C)[nH]c(/C=C2\C(=O)Nc3ccccc32)c1C | 96.4
O=S(=O)(c1cccc2cnccc12)N1CCCNCC1 | 99.7
O=C(Nc1cccc(Nc2cc(Nc3cccc(C(F)(F)F)c3)ncn2)c1)C1CC1 | 98.9
CO[C@H]1C[C@@H]2CC[C@@H](C)[C@@](O)(O2)C(=O)C(=O)N2CCCC[C@H]2C(=O)O[C@H]([C@H](C)C[C@@H]2CC[C@@H](O)[C@H](OC)C2)CC(=O)[C@H](C)/C=C(\C)[C@@H](O)[C@@H](OC)C(=O)[C@H](C)C[C@H](C)/C=C/C=C/C=C/1C | 110
O=c1c2ccccc2[nH]c(=S)n1CCN1CCC(=C(c2ccc(F)cc2)c2ccc(F)cc2)CC1 | 100
Cc1cccc(-c2[nH]c(C(C)(C)C)nc2-c2ccc3c(c2)OCO3)n1 | 63.4

Sample 3
Structure (SMILES): O=C(Nc1cnc(Oc2ccc(F)cc2)nc1)N1CCc2ncccc2[C@@H]1c1ccc(F)cc1
Tested at: 1 µM
target | assay | remaining binding [%]
Myosin-IIIb (MYO3B, Homo sapiens, UniProt Q8WXR4) | binding, competition with immobilised ligand | 100
SIK1 (Homo sapiens, UniProt P57059) | competition binding | 88
EIF2AK2 (Homo sapiens, UniProt P19525) | cell-free assay, competition with immobilised ligand | 73
IRAK3 (Homo sapiens, UniProt Q9Y616) | cell-free assay, competition with immobilised ligand | 100
TNNI3K (Homo sapiens, UniProt Q59H18) | cell-free assay, competition with immobilised ligand | 100

Sample 4
Organism: Plasmodium berghei
Action: inhibitor
Cells: Huh-7
Strain: GFP-expressing, liver stage
Tested at: 10 µM
Time: 24 h
Baseline: untreated control
Compound | infection rate
COc1ccc(C(=O)c2ccccc2)c(O)c1 | 88.2%
CNC(=C[N+](=O)[O-])NCCSCc1ccc(CN(C)C)o1 | 112%
CS(=O)(=O)c1ccc([C@@H](O)[C@@H](CO)NC(=O)C(Cl)Cl)cc1 | 90%
Cc1cc2nc3c(=O)[nH]c(=O)nc-3n(C[C@H](O)[C@H](O)[C@H](O)CO)c2cc1C | 80.5%

Sample 5
Target: Beta-1 adrenergic receptor (ADRB1, Homo sapiens, UniProt P08588)
UniProt P08588, sequence (whole entry, looked up): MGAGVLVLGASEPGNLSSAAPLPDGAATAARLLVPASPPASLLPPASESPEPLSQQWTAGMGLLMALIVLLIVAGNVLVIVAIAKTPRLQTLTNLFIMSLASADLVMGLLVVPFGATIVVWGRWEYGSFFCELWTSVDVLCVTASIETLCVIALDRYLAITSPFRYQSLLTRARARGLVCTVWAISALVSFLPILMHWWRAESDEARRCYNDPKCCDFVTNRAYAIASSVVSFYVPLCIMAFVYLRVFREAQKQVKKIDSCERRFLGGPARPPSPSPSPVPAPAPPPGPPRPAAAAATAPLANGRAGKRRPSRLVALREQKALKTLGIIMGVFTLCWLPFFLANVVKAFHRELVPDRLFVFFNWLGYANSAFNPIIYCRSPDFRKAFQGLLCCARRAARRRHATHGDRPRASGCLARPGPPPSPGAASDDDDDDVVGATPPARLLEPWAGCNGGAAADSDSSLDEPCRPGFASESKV
Action: antagonist
Compound | IC50 [µM]
Oc1ccccc1NCC(O)Cn1ccc2ccccc21 (centres unmarked) | ≥ 100
N#Cc1cc2c(nc1N1CCCC(COc3ncccc3C(F)(F)F)C1)CCOC2 (centres unmarked) | ≥ 100
CCN(CC)c1ccc(C(=C2C=CC(=[N+](CC)CC)C=C2)c2cc(S(=O)(=O)O)ccc2S(=O)(=O)[O-])cc1 | 20
Nc1nc(CC(=O)Nc2ccc(CCNC[C@H](O)c3ccccc3)cc2)cs1 | ≥ 100

Excerpt of the above (sample 2):
SMILES | remaining activity [%]
OCC(O)CCON=C1C(c2c(O)[nH]c3ccccc23)=Nc2ccccc21 (centres unmarked) | 52.9
O=C(CCCc1ccc(-c2ccccc2F)cc1)Nc1ccc(O)cc1 | 102
Cn1c2ccccc2c2c3c(c4c5ccccc5n(CCC#N)c4c21)CNC3=O | 97.5
Nc1ccc2ncnc(NCCc3ccc(Oc4ccccc4)cc3)c2c1 | 100
